Experimental data pooled from the literature.
Numbered parts are unrelated; each lists some results of a single study. Positions count from the first letter of the parent shown.

Set 1
Target: TAR DNA-binding protein 43, full length, His tag (TARDBP, Homo sapiens, UniProt Q13148, residues 1-414)
Technique: RNA Bind-n-Seq
Molecule type: RNA
Sample: in vitro
Concentration: 20 nM
Setting: 6-mer, flanks averaged, single round
With: 150 mM LiCl
Relative to: input library
Reading: higher = stronger binding
Oligonucleotide | 6-mer enrichment (R)
CCUGAG | 0.911
UCAGUG | 1.02
GCAGGA | 0.975
CCCCAA | 1.12
CGCAUA | 0.886
UCGGAA | 0.912
UCGAGU | 0.963
ACUUAG | 0.857

Set 2
Target: CCND1, cyclin fold, Cln2 fusion (human)
Technique: yeast growth competition, sequencing
Sample: yeast
Setting: weak parent motif
Relative to: not given
Reading: higher = stronger binding
Parent: GMNC docking peptide (human); KNAKRNLSSEFAN; partner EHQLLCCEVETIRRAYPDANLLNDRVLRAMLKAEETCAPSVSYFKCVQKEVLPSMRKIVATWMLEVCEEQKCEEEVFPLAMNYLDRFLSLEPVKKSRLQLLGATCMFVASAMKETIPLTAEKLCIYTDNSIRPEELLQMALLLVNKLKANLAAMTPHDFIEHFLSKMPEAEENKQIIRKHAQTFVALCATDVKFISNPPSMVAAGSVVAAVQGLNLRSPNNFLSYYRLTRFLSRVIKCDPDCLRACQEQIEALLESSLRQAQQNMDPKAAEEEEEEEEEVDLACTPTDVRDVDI
Variant | normalised enrichment score
R5Y | 0.115
L7I | 0.468
F11Y | 0.07
K4A | 0.669
N6F | -0.0987
L7Q | 0.0419
L7W | -0.142
R5E | 0.254

Set 3
Target: Ras GTPase-activating protein-binding protein 1, C-terminal RGG region (G3BP1, Homo sapiens, UniProt Q13283)
Chain of UniProt Q13283 (whole entry, looked up): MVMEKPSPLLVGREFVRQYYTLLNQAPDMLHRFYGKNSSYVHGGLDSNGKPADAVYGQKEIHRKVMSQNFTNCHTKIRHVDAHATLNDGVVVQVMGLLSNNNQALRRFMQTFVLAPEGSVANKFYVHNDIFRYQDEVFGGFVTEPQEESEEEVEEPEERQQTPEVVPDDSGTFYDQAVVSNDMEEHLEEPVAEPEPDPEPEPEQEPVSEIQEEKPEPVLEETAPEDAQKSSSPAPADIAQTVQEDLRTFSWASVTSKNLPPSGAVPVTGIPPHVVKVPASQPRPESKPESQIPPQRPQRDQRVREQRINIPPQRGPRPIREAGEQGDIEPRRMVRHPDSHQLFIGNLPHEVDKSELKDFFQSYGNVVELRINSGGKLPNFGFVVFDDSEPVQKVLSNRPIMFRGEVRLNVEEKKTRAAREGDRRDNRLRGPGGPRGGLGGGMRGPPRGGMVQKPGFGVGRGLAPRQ
Technique: RNA Bind-n-Seq
Molecule type: RNA
Sample: in vitro
Concentration: 1 µM
Setting: whole 134-nt RNA, ends assumed
With: 150 mM KCl
Relative to: input library
Reading: higher = stronger binding
Oligonucleotide | log2 enrichment
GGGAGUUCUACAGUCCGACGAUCUGUGCUACACAUCGUAUGUACCGAAUCGGGAAAAAAAGGGGAAAAAAAGGGGAAAAAAAGGGGAAAGUAUUAUGUUACGCCGUUCGGAUCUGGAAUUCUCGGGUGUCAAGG | -0.752
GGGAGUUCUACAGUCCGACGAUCGUCCUGUGCUACACAUCGUAUGUACCGAAUCGGAAAAAGGGGAAAAAGGGAAAAAGGGGAAAGUAUUAUGUUACGCCGUUCGGAUCUGCAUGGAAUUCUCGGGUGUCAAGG | -0.742
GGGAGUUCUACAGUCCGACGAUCCAAGUCCUGUGCUACACAUCGUAUGUACCGAAUCGGGUUUUUUUGGGAGGGUGGGAAAGUAUUAUGUUACGCCGUUCGGAUCUGCACUUCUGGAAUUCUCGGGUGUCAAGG | 1.19
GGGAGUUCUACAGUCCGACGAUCACCAUGCAGGUGGGCAUCUUUGGGAAGUGGGGCAAGGGGGGGAUAGGGAGGGGGGUAACACUUUGGGAACAGGUGGACCCAGGUCGUUUCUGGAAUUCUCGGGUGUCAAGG | 1.29
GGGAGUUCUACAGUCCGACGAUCCAAGUCCUGUGCUACACAUCGUAUGUACCGAAUCGGAAAAAGGUUUUUUUGGUGGAAAGUAUUAUGUUACGCCGUUCGGAUCUGCACUUCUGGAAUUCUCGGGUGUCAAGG | -1.93
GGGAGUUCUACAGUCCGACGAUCGUCCUGUGCUACACAUCGUAUGUACCGAAUCGGGGUUUGGGGUUUUUGGGGUUUGGGGAAAGUAUUAUGUUACGCCGUUCGGAUCUGCACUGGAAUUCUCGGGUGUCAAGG | 2.43
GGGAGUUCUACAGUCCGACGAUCAAGUCCUGUGCUACACAUCGUAUGUACCGAAUCGGGAAAGGGAAAAAGGGUUUGGGAAAGUAUUAUGUUACGCCGUUCGGAUCUGCACUUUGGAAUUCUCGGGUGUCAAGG | 1.33
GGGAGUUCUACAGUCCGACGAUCUGGGAGGUGGAUUUUGUUUAUUUUUUUAGCUCAUUUCCAGGUGUGGGAAUUUUUUUUUAAUAUGUGUCAUGAAUAAAGUUGUUUUUGAAAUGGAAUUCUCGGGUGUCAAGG | 3.67
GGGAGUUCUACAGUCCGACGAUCACCAUGCAGGUGGGCAUCUUUGGGAAGUGUGGCAAGGGGGGGAUAGGGAGGGGGGUAACACUUUGGGAACAGGUGGUCCCAGGUCGUUUCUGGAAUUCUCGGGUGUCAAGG | -1.12

Mixed results
Molecule | target | assay | test system | setting | how to read | measurement | value
PhoQ, residues 284 288 289 292 302 303 ALVSVA | PhoP, residues 12 14 15 18 19 VHSCL (Escherichia coli, UniProt P23836) | Sort-seq, measured: YFP reporter | E. coli | PhoQ-PhoP variant library, with: 10 µM Mg2+ | relative to: high Mg2+ state, higher = stronger signaling | fold induction | 21.6

Repeated from above (set 1):
Oligonucleotide | 6-mer enrichment (R)
UCGAGU | 0.963
CCCCAA | 1.12
GCAGGA | 0.975
